Measured values pooled from the literature.
Every numbered part comes from another study and shows a few of its results, in no order. Several values in a cell are separate wells, animals, samples, runs or records.
Sequence of UniProt P15170 (whole entry, looked up): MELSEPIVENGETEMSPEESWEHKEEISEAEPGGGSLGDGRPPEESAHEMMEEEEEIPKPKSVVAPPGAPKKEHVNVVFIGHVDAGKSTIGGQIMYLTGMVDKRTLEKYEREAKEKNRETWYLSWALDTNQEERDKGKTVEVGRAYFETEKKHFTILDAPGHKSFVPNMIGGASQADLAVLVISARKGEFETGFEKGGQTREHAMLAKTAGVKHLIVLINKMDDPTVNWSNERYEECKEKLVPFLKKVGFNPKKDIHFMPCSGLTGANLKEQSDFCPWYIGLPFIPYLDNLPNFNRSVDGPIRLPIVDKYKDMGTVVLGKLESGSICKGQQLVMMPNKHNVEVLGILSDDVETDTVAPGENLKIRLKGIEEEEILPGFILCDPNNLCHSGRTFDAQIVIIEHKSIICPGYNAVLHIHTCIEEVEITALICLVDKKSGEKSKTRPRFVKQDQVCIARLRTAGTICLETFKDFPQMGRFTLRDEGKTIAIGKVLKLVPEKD
Sequence of UniProt Q13422 (whole entry, looked up): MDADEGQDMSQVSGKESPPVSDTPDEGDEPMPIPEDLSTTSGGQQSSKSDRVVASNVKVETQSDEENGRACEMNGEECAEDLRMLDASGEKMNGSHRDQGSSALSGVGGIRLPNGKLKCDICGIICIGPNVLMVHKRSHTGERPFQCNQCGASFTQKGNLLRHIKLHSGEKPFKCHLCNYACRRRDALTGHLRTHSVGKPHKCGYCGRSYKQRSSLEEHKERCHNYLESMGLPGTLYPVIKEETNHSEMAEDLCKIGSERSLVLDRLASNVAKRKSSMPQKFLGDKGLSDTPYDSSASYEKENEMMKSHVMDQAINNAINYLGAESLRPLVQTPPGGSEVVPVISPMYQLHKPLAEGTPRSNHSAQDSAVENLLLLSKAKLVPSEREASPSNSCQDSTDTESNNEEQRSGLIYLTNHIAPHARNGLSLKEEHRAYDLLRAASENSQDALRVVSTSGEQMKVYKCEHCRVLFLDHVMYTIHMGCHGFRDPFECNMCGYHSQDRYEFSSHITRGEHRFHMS
Sequence of UniProt P41143 (whole entry, looked up): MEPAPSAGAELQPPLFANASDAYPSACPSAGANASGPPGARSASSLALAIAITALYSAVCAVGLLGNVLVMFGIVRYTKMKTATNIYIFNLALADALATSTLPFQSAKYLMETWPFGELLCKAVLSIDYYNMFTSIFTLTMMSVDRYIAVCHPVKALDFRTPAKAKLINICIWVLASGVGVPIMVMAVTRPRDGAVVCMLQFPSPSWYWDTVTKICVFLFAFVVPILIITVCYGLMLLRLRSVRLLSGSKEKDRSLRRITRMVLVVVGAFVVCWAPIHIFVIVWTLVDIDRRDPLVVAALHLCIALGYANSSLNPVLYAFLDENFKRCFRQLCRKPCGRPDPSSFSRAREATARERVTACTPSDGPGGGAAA

Series 1 — mode: degrader; method: HiBiT; cells: HEK293; measurement: remaining protein
Structure (SMILES): Cn1cc(-c2cccc(CN3CCC4(CC3)COc3c4ccc4c3CN([C@@H]3CCC(=O)NC3=O)C4=O)c2)cn1
Zinc finger protein Aiolos: Zinc finger protein Aiolos (Homo sapiens, UniProt Q9UKT9)
Sequence of UniProt Q9UKT9 (whole entry, looked up): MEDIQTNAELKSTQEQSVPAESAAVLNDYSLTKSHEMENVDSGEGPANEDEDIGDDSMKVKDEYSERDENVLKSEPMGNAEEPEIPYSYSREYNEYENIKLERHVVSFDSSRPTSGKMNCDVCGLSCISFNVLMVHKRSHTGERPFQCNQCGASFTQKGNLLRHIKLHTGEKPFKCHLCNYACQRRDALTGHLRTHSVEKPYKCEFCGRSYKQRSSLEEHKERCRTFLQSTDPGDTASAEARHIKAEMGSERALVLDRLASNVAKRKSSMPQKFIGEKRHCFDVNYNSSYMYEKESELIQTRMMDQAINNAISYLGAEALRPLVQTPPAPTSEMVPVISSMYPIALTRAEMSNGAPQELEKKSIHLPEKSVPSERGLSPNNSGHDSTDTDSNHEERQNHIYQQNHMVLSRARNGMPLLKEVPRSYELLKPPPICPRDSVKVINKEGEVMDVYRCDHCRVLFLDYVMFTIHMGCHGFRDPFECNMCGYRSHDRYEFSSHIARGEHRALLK
Zinc finger protein Aiolos; 41.15 nM: 96.9% and 94.9%
Zinc finger protein Aiolos; 4.572 nM: 101% and 105%
Eukaryotic peptide chain release factor GTP-binding subunit ERF3A (GSPT1, Homo sapiens, UniProt P15170); 13.72 nM: 102% and 99.2%
DNA-binding protein Ikaros (Homo sapiens, UniProt Q13422); 123.5 nM: 98.6% and 96.8%

Single results of other studies
C=CCN1C(=O)C(O)(C(=O)O)Oc2cc(F)ccc21 (centres unmarked) — inhibition (Arabidopsis thaliana; root length; Col-0, seedlings; 25 µg/mL; reference: water control): 20.1%
N=C(N)NCCCCCCN1CCC23c4c5ccc(O)c4OC2c2nc4ccccc4cc2CC3(O)C1C5 (centres unmarked) — EC50 (Delta-type opioid receptor, with GoA (OPRD1, Homo sapiens, UniProt P41143); human cells): 10.2 nM
CCCCC[C@@H]1CC(=O)N[C@@H](C(C)C)C(=O)N[C@H](CCCNC(=N)N)C(=O)N[C@@H](C(C)C)C(=O)NCC(=O)N2CCC[C@H]2C(=O)N[C@@H](CC(C)C)C(=O)N[C@H](CCCNC(=N)N)C(=O)N[C@@H](CCC(=O)O)C(=O)N[C@H](Cc2ccc(O)cc2)C(=O)N[C@H](Cc2c[nH]c3ccccc23)C(=O)NCCCC(=O)O1 — viable cells (Staphylococcus aureus; USA300; 2 x MIC, 300 min): 500 CFU/mL and 600 CFU/mL and 400 CFU/mL
CCCN1C(=O)C(O)(C(=O)O)Oc2cc(F)ccc21 (centres unmarked) — inhibition (Glycine max; fresh weight; soil surface spray, 150 g ai/ha, 21 days, pre-emergence crop safety): 5.1% and 4.7% and 4.6%

Some of these lines once more (series 1):
Zinc finger protein Aiolos; 41.15 nM: 96.9% and 94.9%
